Experimental data pooled from the literature.
A part holds a random share of what one study measured. Substitutions count along the parent as printed.

Block 1
Target: Histone acetyltransferase KAT6A, winged helix 1, GST fusion (KAT6A, Homo sapiens, UniProt Q92794, residues 1-85)
Technique: protein binding microarray
Form: double-stranded DNA, one strand shown
Matrix: in vitro
Tested at: not given
Notes: 8-mer, flanks averaged, mean of 2 arrays, mostly near background
Baseline: not given
Reading: higher = stronger binding
Target sequence (chain): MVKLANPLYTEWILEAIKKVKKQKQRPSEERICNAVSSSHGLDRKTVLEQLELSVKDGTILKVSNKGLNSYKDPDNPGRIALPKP
Sequence | E-score
GCTTCGAC | -0.00055
GTTTAGTA | -0.0707
CCGTGCGA | 0.315
ACGTAGCC | 0.0649
ACGTTAGG | -0.0563
GTCACGCA | 0.0722
TTATTCAA | -0.0664
CACACTGA | -0.376
ATTGGCAG | -0.0792
TTGAACAA | -0.119
ATCTAAGG | -0.136
CGGCCCTA | 0.209
CATCCGGA | 0.0774

Block 2
Target: Ras GTPase-activating protein-binding protein 1, C-terminal RGG region (G3BP1, Homo sapiens, UniProt Q13283)
Sequence of UniProt Q13283 (whole entry, looked up): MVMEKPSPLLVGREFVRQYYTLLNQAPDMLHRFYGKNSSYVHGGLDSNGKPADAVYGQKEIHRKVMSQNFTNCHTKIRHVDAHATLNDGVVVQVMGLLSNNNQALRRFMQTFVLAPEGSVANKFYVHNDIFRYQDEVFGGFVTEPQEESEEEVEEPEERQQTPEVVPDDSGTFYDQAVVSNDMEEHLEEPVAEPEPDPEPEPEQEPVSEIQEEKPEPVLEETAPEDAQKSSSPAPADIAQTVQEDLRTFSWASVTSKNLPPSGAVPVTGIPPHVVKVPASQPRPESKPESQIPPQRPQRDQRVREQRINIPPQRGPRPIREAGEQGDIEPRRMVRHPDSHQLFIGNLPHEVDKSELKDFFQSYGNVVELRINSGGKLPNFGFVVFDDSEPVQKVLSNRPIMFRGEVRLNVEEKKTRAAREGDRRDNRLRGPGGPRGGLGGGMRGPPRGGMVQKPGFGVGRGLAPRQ
Technique: RNA Bind-n-Seq
Form: RNA
Matrix: in vitro
Tested at: 1 µM
Notes: whole 134-nt RNA, ends assumed
Added: 150 mM KCl
Baseline: input library
Reading: higher = stronger binding
Sequence | log2 enrichment
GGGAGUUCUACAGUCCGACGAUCUAGAUAUCCAUAGAAAAGAGAACUCUGGAGCUGCAGAGAAGCCUGUCACCAUCCAUGCCACCCCAGAGGGGACUUCUGAAGCAUGCCGCAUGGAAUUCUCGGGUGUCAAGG | -1.12
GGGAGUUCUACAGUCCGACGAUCGCAGGAAGUAAAAACAAAUGGAAAUGCUUCGGAUAGUGGCAGGGGUGGGGGUUGCUUAGGAAAGGGUGGGAUGGGAGUGGGUAAAGAGUUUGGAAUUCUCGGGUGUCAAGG | 1.95
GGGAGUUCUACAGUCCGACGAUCUCAAGUCCUGUGCUACACAUCGUAUGUACCGAAUCGGAAAAAGGUUUUUGGAGGAAAGUAUUAUGUUACGCCGUUCGGAUCUGCACUUCCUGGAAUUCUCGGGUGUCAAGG | -1.33
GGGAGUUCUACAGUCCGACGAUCGCAGGAAGUAAAAACAAAUGGAAAUGCUUCGGAUAGUGGCAGGGGUGGGGGUUGCUAAGGAAAGGGUGGGAUGGGAGUGUGUAAAGAGUUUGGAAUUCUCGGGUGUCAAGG | 1.71
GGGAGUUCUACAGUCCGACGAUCCACAGACAACACGCACCCACACAGACACAGAGGGAAGGGGUUGGGAUGGGGACAGGGUGGACAGCAGGGCGGGGUAGGACCCCAGCCCCUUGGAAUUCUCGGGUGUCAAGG | -0.625
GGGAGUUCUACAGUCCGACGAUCCUGUGCUACACAUCGUAUGUACCGAAUCGGGGUUUUUUUGGGGAAAAAGGGGUUUUUGGGGAAAGUAUUAUGUUACGCCGUUCGGAUCUGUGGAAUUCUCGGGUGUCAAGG | 0.0807
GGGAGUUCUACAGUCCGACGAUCAAGUCCUGUGCUACACAUCGUAUGUACCGAAUCGGGUUUUGGGUUUUGGUUUUGGGAAAGUAUUAUGUUACGCCGUUCGGAUCUGCACUUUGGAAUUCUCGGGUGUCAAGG | -1.28
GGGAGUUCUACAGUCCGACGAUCAGUCCUGUGCUACACAUCGUAUGUACCGAAUCGGAAAGGAAAAAAAGGAAAAAAAGGAAAGUAUUAUGUUACGCCGUUCGGAUCUGCACUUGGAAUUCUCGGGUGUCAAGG | -1.99
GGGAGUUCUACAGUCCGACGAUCGCAGGAAGUAAAAACAAAUGGAAAAGCUUCGGAUAGUGGCAGGGGUGGGGGUUGCUAAGGAAAGGGUGGGAUGGGAGUGGGUAAAGAGUUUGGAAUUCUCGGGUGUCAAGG | 2.61
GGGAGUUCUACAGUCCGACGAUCGUCCUGUGCUACACAUCGUAUGUACCGAAUCAAAUUUUUAAAUUUUUUUAAAUUUAAAAAAGUAUUAUGUUACGCCGUUCGGAUCUGCACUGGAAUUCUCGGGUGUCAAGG | -2.87
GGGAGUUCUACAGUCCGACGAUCUGGGAGGUGGAUUUUGUUUAUUUUUUUAGCUCAUUUCCAGGGGUGGGAAUUUUUUUUUAAUAUGUGUCAUGAAUAAAGUUGUUUCUGAAAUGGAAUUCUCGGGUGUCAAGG | 2.47

Block 3
Target: ABI1, truncated, D143A, DHFR fusion (Arabidopsis thaliana)
Technique: DHFR PCA, deep sequencing
Matrix: yeast
Notes: methotrexate growth selection, single substitutions
Added: (+)-ABA 4.8 µM
Baseline: wild-type fitted maximum
Reading: higher = stronger binding
Starting sequence: PYL1, truncated, DHFR fusion (Arabidopsis thaliana); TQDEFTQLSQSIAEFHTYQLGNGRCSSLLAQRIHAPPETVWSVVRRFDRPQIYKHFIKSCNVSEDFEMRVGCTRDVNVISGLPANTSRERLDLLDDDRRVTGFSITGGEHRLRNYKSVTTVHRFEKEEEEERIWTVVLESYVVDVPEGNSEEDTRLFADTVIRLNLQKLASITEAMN
Variant | relative binding score
R163T | 49.1%
L82A | 14%
V145G | 5.81%
T101L | 74%
F56E | -6.24%
I57W | 17.9%
C25R | -4.59%

Single results of other studies
Molecule | target | assay | test system | setting | scale | quantity | result
PhoQ, residues 284 288 289 292 302 303 SACGEM | PhoP, residues 12 14 15 18 19 LHHVQ (Escherichia coli, UniProt P23836) | Sort-seq, refers to: YFP reporter | E. coli | PhoQ-PhoP variant library, added: 10 µM Mg2+ | baseline: high Mg2+ state, higher = stronger signaling | fold induction | 31.6

A few entries again (block 2):
Sequence | log2 enrichment
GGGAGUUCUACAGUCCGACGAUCGUCCUGUGCUACACAUCGUAUGUACCGAAUCAAAUUUUUAAAUUUUUUUAAAUUUAAAAAAGUAUUAUGUUACGCCGUUCGGAUCUGCACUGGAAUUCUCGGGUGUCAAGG | -2.87
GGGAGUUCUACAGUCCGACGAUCGCAGGAAGUAAAAACAAAUGGAAAUGCUUCGGAUAGUGGCAGGGGUGGGGGUUGCUUAGGAAAGGGUGGGAUGGGAGUGGGUAAAGAGUUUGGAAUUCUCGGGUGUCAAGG | 1.95
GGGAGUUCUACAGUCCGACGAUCCUGUGCUACACAUCGUAUGUACCGAAUCGGGGUUUUUUUGGGGAAAAAGGGGUUUUUGGGGAAAGUAUUAUGUUACGCCGUUCGGAUCUGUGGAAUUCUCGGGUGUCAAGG | 0.0807
